Experimental data of several laboratories.
A part holds a random share of what one study measured. Substitutions count along the parent as printed.

Sample 1 — target: CCNB1, cyclin fold, Cln2 fusion (human); technique: yeast growth competition, sequencing; medium: yeast; setting: weak parent motif; reference: not given; reading: higher = stronger binding
Parent: CDKN1B docking peptide (human); PSACRNLFGPVDH
`L7A`: “normalised enrichment score” 0.0518.
Under “normalised enrichment score”, `V11W` is recorded as 1.52.
`C4F` — result for “normalised enrichment score”: 0.163.
`A3N`: “normalised enrichment score” 0.725.
`F8I`: “normalised enrichment score” 0.522.
`P10Y` — result for “normalised enrichment score”: 0.919.
`C4K` — result for “normalised enrichment score”: 0.113.
`N6F` — result for “normalised enrichment score”: 0.406.
`V11L`: “normalised enrichment score” 0.836.
`R5D` — result for “normalised enrichment score”: 0.0776.
`H13E` — result for “normalised enrichment score”: 0.481.
For `P10S`, “normalised enrichment score” read 0.522.
`V11E` — result for “normalised enrichment score”: 0.379.
For `R5S`, “normalised enrichment score” read -0.00164.
Under “normalised enrichment score”, `H13S` is recorded as 0.259.
`S2I`: “normalised enrichment score” -0.0699.
`D12R`: “normalised enrichment score” 0.453.
`S2F`: “normalised enrichment score” 0.622.
`D12V`: “normalised enrichment score” 0.524.
For `R5H`, “normalised enrichment score” read 0.312.
Under “normalised enrichment score”, `P10E` is recorded as 0.487.
`H13T` — result for “normalised enrichment score”: 0.427.
`G9L`: “normalised enrichment score” 0.515.

Sample 2 — technique: RNA Bind-n-Seq; molecule type: RNA; medium: in vitro; concentration: not given; reference: input RNA pool; reading: higher = stronger binding
Target: RING finger protein unkempt homolog, zinc fingers 1-6, GST-SBP tag (UNK, Homo sapiens, UniProt Q9C0B0, residues 30-357)
Setting: RNA with constant flanks, human and mouse sites, ends assumed
Construct (chain): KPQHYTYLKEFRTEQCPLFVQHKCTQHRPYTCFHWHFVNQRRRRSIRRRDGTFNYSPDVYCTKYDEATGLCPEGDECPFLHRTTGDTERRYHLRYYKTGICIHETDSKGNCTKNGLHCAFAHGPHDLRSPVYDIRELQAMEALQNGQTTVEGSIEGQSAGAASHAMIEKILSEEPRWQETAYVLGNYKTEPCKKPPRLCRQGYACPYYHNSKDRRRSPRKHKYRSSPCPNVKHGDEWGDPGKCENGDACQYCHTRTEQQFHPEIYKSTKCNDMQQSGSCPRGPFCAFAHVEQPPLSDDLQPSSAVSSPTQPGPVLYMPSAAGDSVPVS
`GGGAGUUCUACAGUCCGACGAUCGGCCUGACAAAUUAUGCUGCAGCAUAUUGUACUGGCCUGCUGCUGGCCCGCAGGCUUCUCAAUAGGUUUGGCAUGGACAAGAUCUAUGAAGGCCAAGUGGAGGUGACUGGUGAUGAAUACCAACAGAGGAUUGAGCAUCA` has a bound/input enrichment of 0.255 ratio.
With `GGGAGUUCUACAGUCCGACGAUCUGUUUUGCACGUAUGGUUGGAUGUACUGGAAAAGUCAUAGGAAUUGAUCACAUUAAAGAGCUAGUAGAUGACUCAGUAAAUAAUGUCAGGAAGGACGAUCCAACACUUCUGUCUUCAGGGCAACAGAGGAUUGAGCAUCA` the bound/input enrichment was 4.13 ratio.
`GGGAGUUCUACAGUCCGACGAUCCAUCUUUGCAUUAUAACCACUCUGCUAAAUUCUUGAAGGAGCUGACAUUAUCUAUGGAUGAGCUGGAAGAGAAUUUCCGCAGUAUGUUGAAGAGUGCAGCCACCAAAGUGACCACAGUGUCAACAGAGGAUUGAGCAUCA` gave a bound/input enrichment of 0.181 ratio.
The bound/input enrichment of `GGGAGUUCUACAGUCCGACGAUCAUGACAUUAGUGAAAGCAUCAAAGAGCUUCAGUUUUACCGAAAUAACAUCUUCAAGAAAAAAAUAGAUGAAAAGAAGAGGAAAAUUAUAGAAAAUGGGGAAAAUGAGAAGACCGUGAGUUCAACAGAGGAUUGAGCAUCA` is reported as 3.7 ratio.
`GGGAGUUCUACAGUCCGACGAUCGAAUCUUCUGACAAUGAAGGUAGGCGGACAACGAGGAGAUUGCUGUCACGCAUAGCUUCUAGCAUGUCAUCUACUUUUUUUUCACGAAGAUCUAGUCAGGAUUCCUUGAAUACAAGAUCACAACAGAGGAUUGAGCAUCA` gave a bound/input enrichment of 0.0931 ratio.
With `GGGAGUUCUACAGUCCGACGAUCAGGGGCAAAAUUCUUAAUGUACGGGAAGCUUCUCAUAAACAGAUCAUGGAAAAUGCUGAAAUAAAUAAUAUUAUUAAAAUAGUUGGUCUACAAUAUAAGAAAAGUUACGAUGAUGCAGAACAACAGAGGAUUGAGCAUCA` the bound/input enrichment was 1.42 ratio.
With `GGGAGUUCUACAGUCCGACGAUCGAGGACCUGGCCACCUACGAGCAGAAACUCCGUGAGUGGCACCUGGAGCGGGUGCAGUUGAUCCAGAGGGAGCAGGAACAGAGGGAGAAGGCCAAGCAAGAGUACCAGGCGCUGAGUGCGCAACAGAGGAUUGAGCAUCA` the bound/input enrichment was 0.302 ratio.
`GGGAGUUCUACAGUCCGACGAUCGAAGCCAGCUCUACCGAGGACUCACGUGCUACCAGCAUCCCUGGGAGCCCUUUCAACCUAUUUAGUGACCUUGACAAAGCAGAUGACCUGCCCAGUCACCAAAAAAUAUUUGAUCUAAUGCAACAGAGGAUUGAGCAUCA` has a bound/input enrichment of 0.444 ratio.

Sample 3 — technique: DHFR PCA, deep sequencing; medium: yeast; together with: (+)-ABA 58 µM; reference: wild-type fitted maximum; reading: higher = stronger binding
Target: ABI1, truncated, D143A, DHFR fusion (Arabidopsis thaliana)
Setting: methotrexate growth selection, single substitutions
Parent: PYL1, truncated, DHFR fusion (Arabidopsis thaliana); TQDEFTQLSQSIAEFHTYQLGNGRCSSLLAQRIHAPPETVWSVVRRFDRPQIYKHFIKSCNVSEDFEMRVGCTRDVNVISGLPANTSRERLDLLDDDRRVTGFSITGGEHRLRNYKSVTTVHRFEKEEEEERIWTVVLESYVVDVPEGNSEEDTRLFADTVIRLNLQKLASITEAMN
Under “relative binding score”, `N149E` is recorded as 30.4%.
`E67M` — result for “relative binding score”: 77.4%.
For `N114I`, “relative binding score” read 5.87%.
`L91H` — result for “relative binding score”: -1.85%.
`T154Y` — result for “relative binding score”: -9.29%.
Under “relative binding score”, `E147S` is recorded as 80%.
Under “relative binding score”, `K116V` is recorded as 38.2%.
`E89W` — result for “relative binding score”: -13.9%.
`P83I` — result for “relative binding score”: 4.99%.
`N114Q`: “relative binding score” 29.6%.
`V44T`: “relative binding score” 19%.
`E174S` — result for “relative binding score”: 71.1%.
`V78P` — result for “relative binding score”: 35.9%.
Under “relative binding score”, `L112H` is recorded as -2.49%.
`V161R`: “relative binding score” -2.35%.
For `R49A`, “relative binding score” read 83.5%.
Under “relative binding score”, `V145L` is recorded as 65%.
For `E64T`, “relative binding score” read 82.6%.
For `E131H`, “relative binding score” read 94.8%.
`N77Y`: “relative binding score” 90.1%.
`F66I` — result for “relative binding score”: 68.5%.
For `T120H`, “relative binding score” read 5.35%.
`Y53D`: “relative binding score” -21.1%.
`R74V`: “relative binding score” -4.62%.
`E131L`: “relative binding score” 92.3%.

Sample 4 — target: FOSL1, bZIP domain (human); technique: DHFR protein complementation; medium: yeast; reference: wild-type JUN-FOS pair; reading: higher = stronger binding
Setting: single substitutions, most at no-binding floor
Parent: JUN, bZIP domain (human); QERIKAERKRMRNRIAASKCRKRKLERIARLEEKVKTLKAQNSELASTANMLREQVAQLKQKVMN; partner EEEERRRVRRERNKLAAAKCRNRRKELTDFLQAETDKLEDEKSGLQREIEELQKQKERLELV
`A57P` gave a binding fitness of -1.41 natural log.
The binding fitness of `L45D` is reported as -1.43 natural log.
With `L38D` the binding fitness was -1.29 natural log.
The binding fitness of `A57H` is reported as -0.488 natural log.
The binding fitness of `E33H` is reported as -0.61 natural log.
With `T37G` the binding fitness was -0.529 natural log.
`A29E` gave a binding fitness of -0.499 natural log.
With `V35L` the binding fitness was -0.429 natural log.
`T48H` has a binding fitness of -0.432 natural log.
`K39E` has a binding fitness of -0.764 natural log.
The binding fitness of `L45Q` is reported as -1.48 natural log.
`R30L` has a binding fitness of -0.24 natural log.
`T48I` has a binding fitness of -0.414 natural log.
`S47D` gave a binding fitness of -0.265 natural log.
For `K39Y`, the binding fitness was -1.11 natural log.
With `V35I` the binding fitness was -0.267 natural log.
The binding fitness of `S43D` is reported as -0.452 natural log.
For `A40C`, the binding fitness was -0.586 natural log.
`N42C` gave a binding fitness of -0.191 natural log.
`A46H` has a binding fitness of -0.501 natural log.
The binding fitness of `V56A` is reported as -1.39 natural log.
`I28P` has a binding fitness of -1.06 natural log.
The binding fitness of `E32V` is reported as -0.567 natural log.
`A46D` gave a binding fitness of -1.2 natural log.
`A29H` has a binding fitness of -0.413 natural log.

Excerpt of the above (sample 1):
Under “normalised enrichment score”, `V11W` is recorded as 1.52.
`R5D` — result for “normalised enrichment score”: 0.0776.
For `R5S`, “normalised enrichment score” read -0.00164.
`F8I`: “normalised enrichment score” 0.522.
Under “normalised enrichment score”, `H13S` is recorded as 0.259.
